Experimental data gathered from unrelated publications.
Every numbered part comes from another study and shows a few of its results, in no order.

Block 1
Target: Interferon regulatory factor 3, full length, phosphomimetic (IRF3, Homo sapiens, UniProt Q14653, residues 1-427, S386D/S396D/S398D/S402D/T404D/S405D)
Chain of UniProt Q14653 (whole entry, unmodified, looked up): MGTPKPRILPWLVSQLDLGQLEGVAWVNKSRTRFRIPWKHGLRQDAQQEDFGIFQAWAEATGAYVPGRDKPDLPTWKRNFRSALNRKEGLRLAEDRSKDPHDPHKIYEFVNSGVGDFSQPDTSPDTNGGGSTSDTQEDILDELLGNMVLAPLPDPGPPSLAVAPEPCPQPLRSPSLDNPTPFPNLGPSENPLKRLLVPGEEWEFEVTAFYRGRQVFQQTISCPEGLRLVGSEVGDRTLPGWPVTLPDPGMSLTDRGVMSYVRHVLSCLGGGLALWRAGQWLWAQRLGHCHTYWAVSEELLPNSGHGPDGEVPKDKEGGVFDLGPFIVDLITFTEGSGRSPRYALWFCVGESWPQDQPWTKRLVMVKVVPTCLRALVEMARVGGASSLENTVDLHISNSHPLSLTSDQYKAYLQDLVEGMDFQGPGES
Method: protein-binding microarray
Molecule type: double-stranded DNA, one strand shown
Sample: in vitro
Concentration: 2540 nM top
Notes: 60-bp whole probe
Added: salmon DNA 0.4 mg/ml
Relative to: random background probes
Reading: higher = stronger binding
Measurement: fitted relative affinity
All sequences stand within: GCCTAGCAC … GTCTTGATTCGCTTGACGCTGCTG
TTTGGTATCCTTATCCTTTAGTGCTAG: 6 z-score
GACGGACTGGGTCTCGGGACGTGCTAG: -0.856 z-score
AGCTCTTTCGTTACTTCCTCGTGCTAG: 1.68 z-score
TCAACTTTGGTTTGTACACTGTGCTAG: 0.0625 z-score
CACGGTCTCCTACTGCTGACGTGCTAG: 0.918 z-score
ACTTCCCTCGGGTTGCGGAGCGTGCTA: 0.537 z-score
TCATTTTTCCTAATTGAACTGTGCTAG: 3.51 z-score
GACGGTATCCTACTCCTGACGTGCTAG: 3.95 z-score
GACGGTCTCGGACTGGCGACGTGCTAG: 0.172 z-score
GACGGTTTCGGAATCGGGACGTGCTAG: 7.75 z-score
TCACATATAATTTTGTCACTGTGCTAG: 0.457 z-score
GACGATTTCAGTCTCGAGATGTGCTAG: 2.38 z-score
TCAACTTTCTTTTTTTCACTGTGCTAG: 3.04 z-score
TCAGATTTCAGTCTCGATTAGTGCTAG: 2.7 z-score
GATGGTATCGACACTGGGGACGTGCTA: 0.185 z-score
CAGGGGCTGCCTGGATGCCGGTGCTAG: -1.34 z-score
TTAGGTTTCCATTTCCTTTAGTGCTAG: 8.97 z-score
CTTGCTTTCCTACTGAAATAGTGCTAG: 2.85 z-score
GACGGTAGCGACTTTCGGGACGTGCTA: 0.236 z-score
TCATTTTGCACTCTCTAACTGTGCTAG: 1.7 z-score
GACGGTTTCGACGTTCGGGACGTGCTA: 2.29 z-score
TATTATATCTGTGTTATTAAGTGCTAG: 0.766 z-score
TTAGAACTGGGTTTTCGATTAGTGCTA: 0.776 z-score
GTCGGTTTCCTTTCCCTGACGTGCTAG: 11.2 z-score
GACGATTTGAGTTTCGAGACGTGCTAG: 1.54 z-score

Block 2
Target: TAR DNA-binding protein 43, full length, His tag (TARDBP, Homo sapiens, UniProt Q13148, residues 1-414)
Method: RNA Bind-n-Seq
Molecule type: RNA
Sample: in vitro
Concentration: 20 nM
Notes: 6-mer, flanks averaged, single round
Added: 150 mM KCl
Relative to: input library
Reading: higher = stronger binding
Measurement: 6-mer enrichment (R)
AGAUCA: 0.633
UCAAGU: 0.636
GCCGGA: 1.45
CGGUAG: 1.33
UAGAAC: 0.751
CGGAAC: 0.848
CUCUGU: 0.613
ACGGGU: 1.97
AGUGAU: 0.8
CUGUAA: 0.649
UCGUGG: 1.36
UGGAUA: 0.776
CUUCAU: 0.548
AAGUAU: 0.722
GCCCUA: 0.677

Block 3
Target: Prothrombin, mature alpha-thrombin (F2, Homo sapiens, UniProt P00734)
Method: aptamer microarray, sandwich
Molecule type: DNA with 2'F-ANA
Sample: in vitro
Concentration: 200 nM
Notes: whole 15-mer aptamer, many near background
Added: Cy3 exosite-II aptamer, 400 nM
Reading: higher = stronger binding
Measurement: mean fluorescence intensity
Strand: GGTTGGTGTGGTTGG
2'F-ANA at 1 3 4 7 8 9 10 11 13: 59 a.u.
2'F-ANA at 1 2 3 6 10 14 15: 53.4 a.u.
2'F-ANA at 4 5 6 8 15: 68.4 a.u.
2'F-ANA at 1 2 3 6 7 8 13: 164 a.u.
2'F-ANA at 1 2 5 6 8 9 10 11 12 15: 53.9 a.u.
2'F-ANA at 1 2 6 12 13 14 15: 62.4 a.u.
2'F-ANA at 4 5 10 11 13 14: 42.7 a.u.
2'F-ANA at 1 3 4 6 7 9 10 11 13 15: 60.2 a.u.
2'F-ANA at 2 3 5 6 10 11 12 13 15: 55.2 a.u.
2'F-ANA at 1 2 6 7 8 9 10 12: 67.5 a.u.
2'F-ANA at 3 4 6 9 10 12: 344 a.u.
2'F-ANA at 2 9 11 12 13 15: 490 a.u.
2'F-ANA at 3 8 12 15: 1330 a.u.
2'F-ANA at 1 2 5 6 8 9 10 11 12 13 14 15: 49 a.u.
2'F-ANA at 2 3 6 7 10 13 15: 294 a.u.
2'F-ANA at 1 2 3 6 7 8 9 12 13: 327 a.u.
2'F-ANA at 1 4 6 8 10 12 14 15: 52.3 a.u.
2'F-ANA at 1 4 5 6 9 10 12 13 14 15: 47.8 a.u.
2'F-ANA at 2 5 6 7 9 10 12 14 15: 52.5 a.u.
2'F-ANA at 3 5 7 8 10 14: 53.1 a.u.

Block 4
Target: RNA binding protein fox-1 homolog 2, RRM domain, GST-SBP tag (RBFOX2, Homo sapiens, UniProt O43251-10, residues 100-194)
Method: RNA Bind-n-Seq
Molecule type: RNA
Sample: in vitro
Concentration: 365 nM
Notes: natural RNA segment, single round, ends assumed
Relative to: no-protein control
Reading: higher = stronger binding
Measurement: RBNS enrichment (R)
All sequences stand within: GGGAGUUCUACAGUCCGACGAUC … UGGAAUUCUCGGGUGCCAA
Residues (chain): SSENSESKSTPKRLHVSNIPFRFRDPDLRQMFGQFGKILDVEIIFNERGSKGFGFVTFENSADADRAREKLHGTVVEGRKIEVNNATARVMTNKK
AGUAUUAAGGUGAAUUUUUUUUAAGUAUUUGGGAUAGGUUUGCAGACACCUACAGUUACUGAAGUCUCUCAGAAACUCAGGGAAUAUUGAAAACCCAUGCUGUGAACUGU: 0.44
ACAUGACUAUAACUCUAGACCCAGAGAAUCUGAUGUUCUUCUCCUCUGAGGGCAUCUGAAUGCAUAUAGUGUGUGUGCAUGAACACAGCACUGGACAGUACACUCUGGUG: 4.61
AUGAUACAGAGUUAGCAGGUUUUUCUAAGGAAAUGCCAUUCAAAUGCCUCCUAACUUUUAUAGUUAUUUUGUUUUAUAUUUCUAAAUUCUUGUAUCAGAUCCAAAGCUCU: 0.459
UCUGAGGUGAAAGACCUUCUUCUCAGGGGGCAGGCUCCACCAGGAAUGGAGGAUCAAUCGCUGUAAUAUUCUAGUGUUGAGUGUAGCUCUUGGGGUCUGAACUAUGGAGG: 0.724
UACUCAUAUAAAAUGAACAGGAAAGUGUUAGUGAUUGGGUGAUUUGAGCUACAUCUUGUUGAGCAAGGGGAGUGAAACCACAGAAACUGUUAAAUUGAACGUAAAUAACU: 0.581
AGGCCUAAUUGUUCAUCAUCAAGCCGGCGACUCAUGUGGUGCCUGCCCUAGGCGUGGCCUGCGGUCUGGCAGAUCCGUGCUACAGAAUUCGCCUGGUUCCUCUCUAUUUU: 0.688
AACGUUUUGCUUCCUUCAGUUCUACUUCUCUGUGGUUGGUUUCGGUGUCGCCCUUCAGGAACUCAGAACCCGGGUGUCAGCUCUUAACAUCUCUAAGCCUUUUAAUAAAA: 0.537
CUGCGCUAUGUGGAUAUUUCUGGAACCACCUGACAGACCUGUCUCCACUCAACUACCUCACCCACCUGCUCUGGCUCAAGGCUGAUGGCAAUCGGCUGCGAAGUGCCCAG: 0.61
AACCCAAAAUUCAAUCAACAAUUCUGUCUUAUUGAAGAGUUGCUAGGAUUCAGAGUAAAACUCAAAGGAUUCAGUUUGAGCCUAGAAUGAUGGUUAGACUUGUAGUCACU: 0.252
CAGGUAGAUAAUUUUUCAAAUGUGAAUUAUCUUUUGUGUCUAUAUUGAUAGCUCUUAAAGGAGUGAAAAUCUAAAAUAGUAAAUUUCAAUGUUAAGUGUCUGCUUUAUGG: 0.591
CACUAACAUCCUCCUACACCGGUCCAUCGUGUUCGGCUCUGAUCAGGAAUAGACAAGGCUUCUUUGACUGUCAAGUGAUUAACAUAUGGUACCCGGUGUCAGAACAUUUA: 0.272
AUAAGUGACCAAGACGGGACUUUCCACAUUUUAGUCUACAUUCUAAUCUUAAAGGAAUAAAGCACUGAAUUGGGACUAACAUUCUGAUAGGUUGCACCCUUAAGAGUAUU: 0.413

Block 5
Target: Fragile X messenger ribonucleoprotein 1, C-terminal low-complexity region (Fmr1, Mus musculus, UniProt P35922)
Method: RNA Bind-n-Seq
Molecule type: RNA
Sample: in vitro
Concentration: 200 nM
Notes: whole 134-nt RNA, ends assumed
Added: 150 mM LiCl
Relative to: input library
Reading: higher = stronger binding
Measurement: log2 enrichment
Library: 7-deaza-guanosine replaces G
All sequences stand within: GGGAGUUCUACAGUCCGACGAUC … UGGAAUUCUCGGGUGUCAAGG
AAGUCCUGUGCUACACAUCGUAUGUACCGAAUCGGGGUUUGGGGAGGGGAAAGGGGAAAGUAUUAUGUUACGCCGUUCGGAUCUGCACUU: -0.563
CACAGACAACACGCACCCACACAGACACAGAGGGCAGGGGUUGGGAUGGGGACAGGGUGCACAGCAGGGCGGGGUAGGACCCCAGCCCCU: -0.34
CCUGUGCUACACAUCGUAUGUACCGAAUCGGGGCCCCCCGGGCCCCCCGGGCCCCCCGGGAAAGUAUUAUGUUACGCCGUUCGGAUCUGC: -2.07
UUCACAGCCAGCAGGCAUUGGAAUAUGGCACCAAACUCGUUGGAGGAACCACUCCAGGGAAAGGAGGCCAGACACAUCUGGGCUUACCUG: -0.0809
CUCAAGUCCUGUGCUACACAUCGUAUGUACCGAAUCGGGUUGGGUUGGUUGGGGAAAGUAUUAUGUUACGCCGUUCGGAUCUGCACUUCC: -0.427
CUCAAGUCCUGUGCUACACAUCGUAUGUACCGAAUCGGUUUGGAAAGGAAAGGAAAGUAUUAUGUUACGCCGUUCGGAUCUGCACUUCCA: 0.206
UGGCCCUGGUGGCAUGCGGGGAGGAAGAGGUGGCCUCAUGGAUCGUGGUGGUCCUGGUGGAAUGUUCAGAGGUGGCCGUGGUGGAGACAG: -0.263
UGGGAGGUGGAUUUUGUUUAUUUUUUUAGCUCAUUUCCAGGGGUGGGAAUUUUUUUUUAAUAUGUGUCAUGAAUAAAGUUGUUUUUGAUA: -0.2
CACAGACAACACGCACCCACACAGACACAGAGGGAAGGGGUUGGGAUGGGGACAGGGUGCACAGCAGGGCGGGGUAGGACACCAGCCCCU: 0.308
UGGCAGAGAAAUUGCAGCUGCAGGAGCAGCUCCAGGCAGAAACCGAGCUGUGUGCCGAGGCUGAGGAGCUCCGGGCCCGCCUGACCGCCA: -1.23
CUGUGCUACACAUCGUAUGUACCGAAUCGGGGAAAAAGGGGAAAAAGGGGAAAAAAAGGGGAAAGUAUUAUGUUACGCCGUUCGGAUCUG: 1.33

Excerpt of the above (block 4):
AGUAUUAAGGUGAAUUUUUUUUAAGUAUUUGGGAUAGGUUUGCAGACACCUACAGUUACUGAAGUCUCUCAGAAACUCAGGGAAUAUUGAAAACCCAUGCUGUGAACUGU: 0.44
ACAUGACUAUAACUCUAGACCCAGAGAAUCUGAUGUUCUUCUCCUCUGAGGGCAUCUGAAUGCAUAUAGUGUGUGUGCAUGAACACAGCACUGGACAGUACACUCUGGUG: 4.61
AUGAUACAGAGUUAGCAGGUUUUUCUAAGGAAAUGCCAUUCAAAUGCCUCCUAACUUUUAUAGUUAUUUUGUUUUAUAUUUCUAAAUUCUUGUAUCAGAUCCAAAGCUCU: 0.459
UCUGAGGUGAAAGACCUUCUUCUCAGGGGGCAGGCUCCACCAGGAAUGGAGGAUCAAUCGCUGUAAUAUUCUAGUGUUGAGUGUAGCUCUUGGGGUCUGAACUAUGGAGG: 0.724
UACUCAUAUAAAAUGAACAGGAAAGUGUUAGUGAUUGGGUGAUUUGAGCUACAUCUUGUUGAGCAAGGGGAGUGAAACCACAGAAACUGUUAAAUUGAACGUAAAUAACU: 0.581
AGGCCUAAUUGUUCAUCAUCAAGCCGGCGACUCAUGUGGUGCCUGCCCUAGGCGUGGCCUGCGGUCUGGCAGAUCCGUGCUACAGAAUUCGCCUGGUUCCUCUCUAUUUU: 0.688
AACGUUUUGCUUCCUUCAGUUCUACUUCUCUGUGGUUGGUUUCGGUGUCGCCCUUCAGGAACUCAGAACCCGGGUGUCAGCUCUUAACAUCUCUAAGCCUUUUAAUAAAA: 0.537
CUGCGCUAUGUGGAUAUUUCUGGAACCACCUGACAGACCUGUCUCCACUCAACUACCUCACCCACCUGCUCUGGCUCAAGGCUGAUGGCAAUCGGCUGCGAAGUGCCCAG: 0.61
AACCCAAAAUUCAAUCAACAAUUCUGUCUUAUUGAAGAGUUGCUAGGAUUCAGAGUAAAACUCAAAGGAUUCAGUUUGAGCCUAGAAUGAUGGUUAGACUUGUAGUCACU: 0.252
CAGGUAGAUAAUUUUUCAAAUGUGAAUUAUCUUUUGUGUCUAUAUUGAUAGCUCUUAAAGGAGUGAAAAUCUAAAAUAGUAAAUUUCAAUGUUAAGUGUCUGCUUUAUGG: 0.591
CACUAACAUCCUCCUACACCGGUCCAUCGUGUUCGGCUCUGAUCAGGAAUAGACAAGGCUUCUUUGACUGUCAAGUGAUUAACAUAUGGUACCCGGUGUCAGAACAUUUA: 0.272
